# Published values from different studies.
# Numbered parts are unrelated; each lists some results of a single study.

# Block 1
# Target: Prothrombin, mature alpha-thrombin (F2, Homo sapiens, UniProt P00734)
# Technique: aptamer microarray, sandwich
# Form: DNA with 2'F-ANA
# Sample: in vitro
# Tested at: 200 nM
# Setting: whole 15-mer aptamer, many near background
# Together with: Cy3 exosite-II aptamer, 400 nM
# Reading: higher = stronger binding
# Sequence: GGTTGGTGTGGTTGG
Modification,mean fluorescence intensity
2'F-ANA at 1 3 5 6 9 12 14,57.6 a.u.
2'F-ANA at 2 3 4 6 7 8 9 11 13 14 15,184 a.u.
2'F-ANA at 4 7 13 14,103 a.u.
2'F-ANA at 1 2 5 7 8 11 14 15,50.7 a.u.
2'F-ANA at 3 4 5 7 8 9 10,52.7 a.u.
2'F-ANA at 1 5 6 9 10 12 13 15,47.1 a.u.
2'F-ANA at 1 3 4 10 14,49.5 a.u.
2'F-ANA at 1 2 4 5 6 8 10 11 12,62.9 a.u.
2'F-ANA at 1 2 3 4 6 8 9 10 12,95.9 a.u.
2'F-ANA at 1 5 7 9 11 13 14,45.4 a.u.
2'F-ANA at 2 3 5 8 14,55.5 a.u.
2'F-ANA at 4 8 10 11 14 15,55.5 a.u.
2'F-ANA at 1 4 5 6 8 11 15,55.4 a.u.
2'F-ANA at 2 4 9 12 13 14 15,96.4 a.u.
2'F-ANA at 1 2 4 6 10 12 15,54.4 a.u.
2'F-ANA at 1 3 5 7 8,72.1 a.u.
2'F-ANA at 3 5 9 11 12 14,60.9 a.u.
2'F-ANA at 2 3 10 12 14,359 a.u.
2'F-ANA at 1 3 4 6 8 10 12 14,54.8 a.u.
2'F-ANA at 6 7 8 11 15,420 a.u.
2'F-ANA at 2 3 6 7 8 11 13,652 a.u.

# Block 2
# Target: Ras GTPase-activating protein-binding protein 1, RRM domain (G3BP1, Homo sapiens, UniProt Q13283)
# Chain of UniProt Q13283 (whole entry, looked up): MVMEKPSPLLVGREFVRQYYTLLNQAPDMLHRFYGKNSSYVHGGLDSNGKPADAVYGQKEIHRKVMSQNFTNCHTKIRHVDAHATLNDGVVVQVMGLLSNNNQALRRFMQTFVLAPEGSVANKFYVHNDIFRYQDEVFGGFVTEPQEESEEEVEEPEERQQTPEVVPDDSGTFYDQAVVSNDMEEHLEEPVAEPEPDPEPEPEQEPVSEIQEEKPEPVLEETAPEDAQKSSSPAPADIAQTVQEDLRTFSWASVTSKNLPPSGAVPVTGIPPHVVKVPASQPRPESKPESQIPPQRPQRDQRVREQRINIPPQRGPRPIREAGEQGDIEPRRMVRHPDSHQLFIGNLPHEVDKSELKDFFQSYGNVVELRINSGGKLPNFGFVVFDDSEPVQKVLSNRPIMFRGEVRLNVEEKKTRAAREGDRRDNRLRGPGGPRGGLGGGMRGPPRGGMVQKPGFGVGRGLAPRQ
# Technique: RNA Bind-n-Seq
# Form: RNA
# Sample: in vitro
# Tested at: 1 µM
# Setting: whole 134-nt RNA, ends assumed
# Together with: 150 mM KCl
# Reference: input library
# Reading: higher = stronger binding
# All sequences stand within: GGGAGUUCUACAGUCCGACGAUC … UGGAAUUCUCGGGUGUCAAGG
Sequence,log2 enrichment
UCAAGUCCUGUGCUACACAUCGUAUGUACCGAAUCGGGAAAGGAAAGGGAAAGGAAAGUAUUAUGUUACGCCGUUCGGAUCUGCACUUCC,-0.244
CACAGACAACACGCACCCACACAGACACAGAGGGAAGGGGUUGGGAUGGGGACAGGGUGCACAGCAGGGCGGGGUGGGACCCCAGCCCCU,-0.295
CCUGUGCUACACAUCGUAUGUACCGAAUCGGGGAAAAAAAGGGGUUUUUUUGGGGUGGGGAAAGUAUUAUGUUACGCCGUUCGGAUCUGC,0.53
GUCCUGUGCUACACAUCGUAUGUACCGAAUCAAAUUUAAAUUUUUAAAUUUUUUUAAAAAAGUAUUAUGUUACGCCGUUCGGAUCUGCAC,-0.759
GCAGGAAGUAAAAACAAAUGGAAAUGCUUCGGAUAGUGGCAGGGGUGGGGGUUGCUAAGGAAAGGGUGGGAUGGGAGUGGGUAAGGAGUU,0.846
UCCUGUGCUACACAUCGUAUGUACCGAAUCGGGGUUUUUGGGGUUUGGGGUUUUUGGGGAAAGUAUUAUGUUACGCCGUUCGGAUCUGCA,1.57
UCAAGUCCUGUGCUACACAUCGUAUGUACCGAAUCGGUUUGGUUUGGGGUUUGGGAAAGUAUUAUGUUACGCCGUUCGGAUCUGCACUUC,-0.315
CAAGUCCUGUGCUACACAUCGUAUGUACCGAAUCGGAGGUUUUUGGAAAAAAAGGAAAGUAUUAUGUUACGCCGUUCGGAUCUGCACUUC,-0.173
GUCCUGUGCUACACAUCGUAUGUACCGAAUCGGGGAAAAAGGGAAAAAGGGGAAAAAGGAAAGUAUUAUGUUACGCCGUUCGGAUCUGCA,-0.00268
UGCCUCUGCGGCUAGCUGAUUUUGGGGUACUUCAUAGGAACGAGCUGUCUGGAGCACUCACAGGACUCACCCGGGUACGAAGAUUCCAAC,-0.536
UCAAGUCCUGUGCUACACAUCGUAUGUACCGAAUCGGUGGAAAAAAAGGUUUGGAAAGUAUUAUGUUACGCCGUUCGGAUCUGCACUUCC,-0.199
ACCAUGCAGGUGGGCAUCUUUGGGAAGUGGGGCAAGGGAGGGAUAGGGAGGGGGGUAACACUUUGGGAACAGGUGGUCCCAGGUCGUUUC,-0.607
CACAGACAACACGCACCCACACAGACACAGAGGGAAGGGGUUGGGAUGGGGACAGGGUGCACAGCAGGGCGGCGUAGGACCCCAGCCCCU,-0.226

# Block 3
# Target: Interferon regulatory factor 7, full length, phosphomimetic (IRF7, Homo sapiens, UniProt Q92985, residues 1-503, S471D/S472D/S475D/S476D/S477D/S483D/S484D/S487D)
# Technique: protein-binding microarray
# Form: double-stranded DNA, one strand shown
# Sample: in vitro
# Tested at: 2200 nM top
# Setting: 60-bp whole probe
# Together with: salmon DNA 0.4 mg/ml
# Reference: random background probes
# Reading: higher = stronger binding
# All sequences stand within: GCCTAGCAC … GTCTTGATTCGCTTGACGCTGCTG
# Target sequence (chain): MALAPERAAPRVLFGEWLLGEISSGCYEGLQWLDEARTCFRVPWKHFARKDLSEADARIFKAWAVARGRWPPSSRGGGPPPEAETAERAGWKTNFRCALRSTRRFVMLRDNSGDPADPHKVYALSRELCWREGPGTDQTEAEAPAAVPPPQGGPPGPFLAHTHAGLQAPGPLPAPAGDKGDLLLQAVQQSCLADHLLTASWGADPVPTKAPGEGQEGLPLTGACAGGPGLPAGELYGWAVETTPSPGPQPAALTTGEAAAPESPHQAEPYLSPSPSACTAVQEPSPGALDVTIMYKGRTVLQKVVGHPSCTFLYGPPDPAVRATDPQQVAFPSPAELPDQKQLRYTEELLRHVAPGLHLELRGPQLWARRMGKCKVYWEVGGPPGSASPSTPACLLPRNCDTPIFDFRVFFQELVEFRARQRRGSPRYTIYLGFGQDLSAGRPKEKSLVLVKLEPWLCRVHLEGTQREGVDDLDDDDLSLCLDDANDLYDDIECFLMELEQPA
Sequence,fitted relative affinity [z-score]
TTAGGACTAGGACTGGGTTAGTGCTAG,-0.571
CACGGTATCGACTTTCGGGACGTGCTA,3.31
TCACAGCTGTTTTTCTCACTGTGCTAG,1.06
TTAGGTATCGGCTTCGGTTAGTGCTAG,0.709
GACGGTCTCCTACTGCTAACGTGCTAG,0.668
TGAGTCTTCCCTTTTAAGTTGTGCTAG,1.43
TTAGGGCTGGACTATCGGTTAGTGCTA,-0.972
GACGAACTGAGTCTGGAGACGTGCTAG,-0.278
GATGGACTGGGTCTCGGGACGTGCTAG,-0.851
GACGGAATGCTTTTCCTGACGTGCTAG,0.749
GACGGTTTGCTTTCCCTGACGTGCTAG,2.31
GGCGATATCGGGTTTCGAGACGTGCTA,1.09
TCAGGTATCGACTATCGGTTAGTGCTA,1.03
GACAGTTTCCTTTTCCTGACGTGCTAG,6.41
GACGGACTGAGTATCGAGACGTGCTAG,-0.438
TTAGGTTTCGGTCTCCGTTAGTGCTAG,7.64

# Block 4
# Target: RING finger protein unkempt homolog, zinc fingers 1-6, GST-SBP tag (UNK, Homo sapiens, UniProt Q9C0B0, residues 30-357)
# Technique: RNA Bind-n-Seq
# Form: RNA
# Sample: in vitro
# Tested at: not given
# Setting: RNA with constant flanks, ends assumed
# Reference: input RNA pool
# Reading: higher = stronger binding
# All sequences stand within: GGGAGUUCUACAGUCCGACGAUC … CAACAGAGGAUUGAGCAUCA
# Construct (chain): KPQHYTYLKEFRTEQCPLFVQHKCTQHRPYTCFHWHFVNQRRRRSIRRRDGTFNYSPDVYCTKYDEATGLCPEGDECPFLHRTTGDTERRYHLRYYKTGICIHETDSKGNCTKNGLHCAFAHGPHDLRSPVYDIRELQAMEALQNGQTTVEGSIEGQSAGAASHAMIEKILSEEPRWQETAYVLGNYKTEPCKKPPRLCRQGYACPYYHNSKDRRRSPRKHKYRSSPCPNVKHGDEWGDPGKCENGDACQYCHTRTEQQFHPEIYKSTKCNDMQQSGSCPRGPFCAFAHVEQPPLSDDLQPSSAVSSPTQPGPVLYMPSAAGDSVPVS
Sequence,bound/input enrichment [ratio]
UGUCAGGUGGCUUAUUUGUGGAUGCCAUGAUUGAUGAUGUUCAUUUUAAGCUCUUACCUACCGUACAAGUACAUGAUGCUACUGAAUAUUUUUCCACUUGGAAACUGUGAGCUGGUUGUU,0.174
GCCAGUACAUCUGACAUUGAAGAGAAGGAGAACAGAGAGUCUUCAAGUUUGCGAACAAGCCGUUCUUACACAAGAAGAAAAUGGGAAGAUGAUCUUAAAAAGAAUAGUUCGAUCAAUGAA,0.159
AUCCAUUCUACUCCUUGGAAAUGCCUAUCAGAUGCGAGCUGUUUGAUCAAAACCUGAAGCCCGCUCCCGAGGUGGCAGAGAAGGCUGGCACUUUUGGACCUGGGUCAUAGGAUGAACCUG,0.134
GAUAUGGGCUAUAAUACAUUAGCCAACUUUCGAAUAGAAAAGAAAAUUGGUCGCGGACAAUUCCGUGAAGUUUAUAGAGCAGCCUGUCUCUUGGAUGGAGUACCAGUAGCUUUAAAAAAA,0.433
AAAAUACUACAAGCAGGUUUUAAGAGAAUGGGUGUUGACAAAAUAAUUCCUGUGGACAAAUCCGUAAAAGGAAAGUUUCAGGACAAUUUUGAAUUCGUUCAGUGGUUCAAGAAGUUUUUC,0.117
CUGAUGCCGAUUGUGUACACGCCAACAGUUGGUCUUGCCUGCUGUCAAUAUGGGCACAUCUUCCGGAGACCUAAGGGAUUGUUUAUUUCAAUCUCAGACAGAGGUCAUGUUAGAUCAAUU,0.189
GACAGCUUGCUCAGUAACUUGGGGUGCCAGUCUGCCUCUCAUGUAGGGCCCUUCAUCGACCGCUACCGCUGCUUCCAACCAAAGCAGGAGGGGGCCUUCACCUGCUGGUCAGCAGUCACU,0.064
AGGGAAAUAUUAUCUGAUGACAAGCAUGAUUGGGAGCAGAGAGUAAAUGCUCUAAAAAAGAUCCGAUCUUUACUUUUGGCUGGUGCUGCUGAGUAUGAUAACUUCUUUCAACAUUUGCGU,0.192
AUUGAGUGGGGAGCUUGUGCACUUGUUCUCACAGGAAACACAGUCAUCUUUGCAACUAUACCCGGCUUUUUCUUGGUCUUUGGAAGCAAUGACGACUUCAGCUGGCAGCAGUGGUGAAAA,0.29

# A few entries again (block 4):
Sequence,bound/input enrichment [ratio]
GCCAGUACAUCUGACAUUGAAGAGAAGGAGAACAGAGAGUCUUCAAGUUUGCGAACAAGCCGUUCUUACACAAGAAGAAAAUGGGAAGAUGAUCUUAAAAAGAAUAGUUCGAUCAAUGAA,0.159
CUGAUGCCGAUUGUGUACACGCCAACAGUUGGUCUUGCCUGCUGUCAAUAUGGGCACAUCUUCCGGAGACCUAAGGGAUUGUUUAUUUCAAUCUCAGACAGAGGUCAUGUUAGAUCAAUU,0.189
GAUAUGGGCUAUAAUACAUUAGCCAACUUUCGAAUAGAAAAGAAAAUUGGUCGCGGACAAUUCCGUGAAGUUUAUAGAGCAGCCUGUCUCUUGGAUGGAGUACCAGUAGCUUUAAAAAAA,0.433
AAAAUACUACAAGCAGGUUUUAAGAGAAUGGGUGUUGACAAAAUAAUUCCUGUGGACAAAUCCGUAAAAGGAAAGUUUCAGGACAAUUUUGAAUUCGUUCAGUGGUUCAAGAAGUUUUUC,0.117
